Measured values from different studies.
Numbered parts are unrelated; each lists some results of a single study.

Block 1
Target: Myc proto-oncogene protein, bHLH-zipper, MAX partner unstated (MYC, Homo sapiens, UniProt P01106, residues 368-449)
UniProt P01106, sequence (368-449, looked up): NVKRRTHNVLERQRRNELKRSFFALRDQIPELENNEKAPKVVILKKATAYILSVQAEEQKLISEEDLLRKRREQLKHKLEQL
Method: protein-binding microarray
Form: double-stranded DNA, one strand shown
Sample: in vitro
Tested at: not given
Setting: k-mer, scored over probes, only values ≥0.25
Reading: higher = stronger binding
| Oligonucleotide | E-score |
| --- | --- |
| GTGTGGGA | 0.317 |
| CACGTGTC | 0.493 |
| AATACACG | 0.303 |

Block 2
Target: RNA binding protein fox-1 homolog 2, RRM domain, GST-SBP tag (RBFOX2, Homo sapiens, UniProt O43251-10, residues 100-194)
Method: RNA Bind-n-Seq
Form: RNA
Sample: in vitro
Tested at: 365 nM
Setting: natural RNA segment, single round, ends assumed
Relative to: no-protein control
Reading: higher = stronger binding
| Oligonucleotide | RBNS enrichment (R) |
| --- | --- |
| GGGAGUUCUACAGUCCGACGAUCAAUUUAAAAUUAGAAGUAGAGAGAGAUAAGCCAUCGCCCCUUUGCCUCUGAGAAUUGGCUGCUGUUUCUAAUAUAAUUAUUUUCUAAGAUAGCCAGAUAGUUAGAAAAAGUGGAAUUCUCGGGUGCCAA | 0.531 |
| GGGAGUUCUACAGUCCGACGAUCCUUCAAUCCAGCUUUCCCCCUUCUUGUUUGCACAUGCCAAGAUAACUGCUUUUAUGCAGGCUUUACCCCUGAAAAACUCCUUUCUACAGUGCUGCUCACGAGAGCCCAGCUGGAAUUCUCGGGUGCCAA | 0.411 |
| GGGAGUUCUACAGUCCGACGAUCAAUUUGUAUUUUGCAGACAAUUCAGUAAAGUUACUGGCUUUCUUAGUGAUGCAGUGUCCGUGGUGCAUUUUUUAAAUUAAUGUUUUGCUGUUUAAAUUUAUUCAAUUUUAUGGAAUUCUCGGGUGCCAA | 0.716 |
| GGGAGUUCUACAGUCCGACGAUCUGCCUGCCUGCUGUUGGUCCUCUCUCUGUGGGGCUGAAUUGCCAGGGGCGAGGCCCUUCCUCUUUGGUGGCAUGGAAGGGGCUUCUGGACCUAGGGUGGCCUGAGAGGGCUGGAAUUCUCGGGUGCCAA | 2.23 |

Block 3
Target: Interferon regulatory factor 7, full length, phosphomimetic (IRF7, Homo sapiens, UniProt Q92985, residues 1-503, S101K/S471D/S472D/S475D/S476D/S477D/S483D/S484D/S487D)
Method: protein-binding microarray
Form: double-stranded DNA, one strand shown
Sample: in vitro
Tested at: 250 nM
Setting: 60-bp whole probe
With: salmon DNA 0.4 mg/ml
Relative to: random background probes
Reading: higher = stronger binding
Target sequence (chain): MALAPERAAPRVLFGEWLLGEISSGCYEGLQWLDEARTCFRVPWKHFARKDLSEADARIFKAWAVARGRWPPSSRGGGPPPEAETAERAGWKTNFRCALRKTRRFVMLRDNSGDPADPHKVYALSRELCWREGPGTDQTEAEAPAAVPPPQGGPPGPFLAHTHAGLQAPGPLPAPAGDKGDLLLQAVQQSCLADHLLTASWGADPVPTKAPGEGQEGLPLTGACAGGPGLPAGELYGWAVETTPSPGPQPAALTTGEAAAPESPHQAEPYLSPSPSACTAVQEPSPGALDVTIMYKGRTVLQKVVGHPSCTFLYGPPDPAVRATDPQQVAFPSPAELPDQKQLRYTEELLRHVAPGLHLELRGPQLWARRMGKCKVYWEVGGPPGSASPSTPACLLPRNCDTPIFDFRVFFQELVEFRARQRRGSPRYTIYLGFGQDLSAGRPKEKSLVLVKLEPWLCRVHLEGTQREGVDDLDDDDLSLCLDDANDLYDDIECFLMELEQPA
| Oligonucleotide | log fluorescence [z-score] |
| --- | --- |
| GCCTAGCACGACGGTTTCTGTTTCGGGACGTGCTAGGTCTTGATTCGCTTGACGCTGCTG | 10 |
| GCCTAGCACTTCGGTATCGGTATCGGTTAGTGCTAGGTCTTGATTCGCTTGACGCTGCTG | 2.74 |
| GCCTAGCACTTAGGTTTCGGACTGAGTTAGTGCTAGGTCTTGATTCGCTTGACGCTGCTG | 4.08 |

Single results of other studies
| Molecule | target | assay | system | conditions | scale | endpoint | value |
| --- | --- | --- | --- | --- | --- | --- | --- |
| PhoQ, residues 284 288 289 292 302 303 AGGLSV | PhoP, residues 12 14 15 18 19 AQALL (Escherichia coli, UniProt P23836) | Sort-seq, measured: YFP reporter | E. coli | PhoQ-PhoP variant library, with: 10 µM Mg2+ | relative to: high Mg2+ state, higher = stronger signaling | fold induction | 3.15 |

A few entries again (block 3):
| Oligonucleotide | log fluorescence [z-score] |
| --- | --- |
| GCCTAGCACTTCGGTATCGGTATCGGTTAGTGCTAGGTCTTGATTCGCTTGACGCTGCTG | 2.74 |
